Experimental data collected from several papers.
Each line is one published result; not all experiments were run side by side. Numbers after ± are the reported error.
AHSG asialo: Alpha-2-HS-glycoprotein, asialo (AHSG, Bos taurus, UniProt P12763)
Nuclear receptor subfamily 2 group C member 2 ligand-binding domain: Nuclear receptor subfamily 2 group C member 2, ligand-binding domain (Homo sapiens, UniProt P49116)
ATRX F284Y/K251R: Transcriptional regulator ATRX (ATRX, Homo sapiens, UniProt P46100, F284Y/K251R)
BRCA1 tandem BRCT domains: Breast cancer type 1 susceptibility protein, tandem BRCT domains (BRCA1, Homo sapiens, UniProt P38398)

Compound | target | assay | test system | conditions | Kd [nM]
Nc1ncnc2c1ncn2[C@@H]1O[C@H](COP(=O)(O)OP(=O)(O)OP(=O)(O)O)[C@@H](O)[C@H]1O | CKMT1A (Homo sapiens, UniProt P12532, E265D) | microscale thermophoresis | – | pH 8.5, E227D mutant, no substrate | 6000 ± 3000
O=[N+]([O-])c1cc(C(F)(F)F)ccc1NCc1ccco1 | Endothelial PAS domain-containing protein 1, PAS-B domain (EPAS1, Homo sapiens, UniProt Q99814, N288Q) | ITC, reverse mode | – | 25 °C | 1570 ± 70
CC(C)C[C@@H]1NC(=O)[C@H](C(C)C)NC(=O)CNC(=O)[C@H](CC(N)=O)NC(=O)[C@@H]2CCCN2C(=O)[C@H](Cc2ccc(O)cc2)NC(=O)[C@H](CCCNC(=N)N)NC(=O)[C@H](Cc2ccccc2)NC(=O)[C@@H](NC(=O)[C@H](CCCCN)NC(=O)[C@@H]2CCCN2C(=O)[C@H](C)NC(=O)[C@H](C)NC(=O)[C@@H](N)Cc2ccc(O)cc2)CSSC[C@@H](C(=O)N[C@H](C(N)=O)[C@@H](C)O)NC(=O)[C@H](C)NC1=O | AHSG asialo | binding, isothermal titration calorimetry | – | pH 7.0, 25 °C, together with: asialofetuin | 61300
CCC1=C(C)CN(C(=O)NCCc2ccc(S(=O)(=O)NC(=O)N[C@H]3CC[C@H](C)CC3)cc2)C1=O | Nuclear receptor subfamily 2 group C member 2 ligand-binding domain | SPR imaging | – | – | 0.251
C=CC(=O)N1CCN(c2nc(OC[C@@H]3CCCN3C)nc3c(F)c(-c4nc(N)cc(C)c4C(F)(F)F)c(Cl)cc23)[C@@H](C)C1 | GTPase KRas, GDP-bound (KRAS, Homo sapiens, UniProt P01116, G12V) | SPR | – | – | 5150 ± 1300
CC1CCCCN1C(=O)CSc1nc(-c2ccc(C(C)(C)C)cc2)nc2cc(=O)[nH]n12 (stereo not drawn) | F-box only protein 22, with SKP1 (Homo sapiens, UniProt Q8NEZ5) | binding, SPR | – | 20 °C | > 6500
C[C@@H]1C/C=C/C=C/C=C/C=C/[C@H](O[C@@H]2O[C@H](C)[C@@H](O)[C@H](N)[C@@H]2O)C[C@@H]2O[C@](O)(C[C@@H](O)C[C@H]3O[C@@H]3/C=C/C(=O)O1)C[C@H](O)[C@H]2C(=O)O | Nuclear receptor subfamily 2 group C member 2 ligand-binding domain | SPR imaging | – | – | 9.09
CCCCCCCC(=O)OC[C@H](COP(=O)(O)O[C@@H]1[C@H](O)[C@H](O)[C@@H](OP(=O)(O)O)[C@H](OP(=O)(O)O)[C@H]1O)OC(=O)CCCCCCC | Kv7.2/Kv7.3(EEE) mutant channel | channel opening, activator, model fit of open probability | – | model 5, K2, efficacy fixed to WT | 55600
CC(C)C[C@H](NC(=O)[C@H](CCC(=O)O)NC(=O)[C@H](CCC(N)=O)NC(=O)[C@H](CO)NC(=O)CCCCCNC(=S)Nc1ccc2c(c1)C(=O)OC21c2ccc(O)cc2Oc2cc(O)ccc21)C(=O)N[C@@H](Cc1c[nH]cn1)C(=O)N[C@@H](CCCCN)C(=O)N[C@@H](CC(C)C)C(=O)N[C@@H](CCC(N)=O)C(=O)N[C@H](C(=O)N[C@@H](Cc1ccc(O)cc1)C(=O)N1CCC[C@H]1C(=O)N[C@@H](CCCNC(=N)N)C(=O)N[C@H](C(=O)N[C@@H](CC(N)=O)C(=O)N[C@H](C(=O)NCC(=O)N[C@@H](CO)C(=O)NCC(=O)N[C@H](C(=O)N1CCC[C@H]1C(N)=O)[C@@H](C)O)[C@@H](C)O)[C@@H](C)O)[C@@H](C)O | Calcitonin receptor, extracellular domain (CALCR, Homo sapiens, UniProt P30988) | peptide binding, fluorescence polarization | – | pH 7.4, receptor ECD alone | 676
Cc1cc2nc3c(=O)[nH]c(=O)nc-3n(C[C@H](O)[C@H](O)[C@H](O)COP(=O)(O)OP(=O)(O)OC[C@H]3O[C@@H](n4cnc5c(N)ncnc54)[C@H](O)[C@@H]3O)c2cc1C | Latent-transforming growth factor beta-binding protein 2 (LTBP2, Homo sapiens, UniProt Q14767) | binding, MS pulldown competition | SW-620 cell lysate | – | 10700
O=C(O)CCCC[C@@H]1SC[C@@H]2NC(=O)N[C@@H]21 | Nuclear receptor subfamily 2 group C member 2 ligand-binding domain | SPR imaging | – | – | 0.223
C[C@H](N)C(=O)N[C@@H](CCCNC(=N)N)C(=O)N[C@H](C(=O)N[C@@H](C)C(=O)N[C@@H](CCC(N)=O)C(=O)N[C@H](C(=O)N[C@@H](C)C(=O)N[C@@H](CCCNC(=N)N)C(=O)N[C@@H](CCCCN)C(=O)N[C@@H](CO)C(=O)O)[C@@H](C)O)[C@@H](C)O | ATRX F284Y/K251R | binding | – | – | 305000
CCCCC[C@H](O)/C=C/[C@H]1[C@H](O)CC(=O)[C@@H]1CCCCCCC(=O)O | Nuclear receptor subfamily 2 group C member 2 ligand-binding domain | SPR imaging | – | – | 24
COC(=O)C[C@@H]1N=C(c2ccc(Cl)cc2)c2c(sc(C(=O)NCCOCCNC(=O)C[C@@H]3N=C(c4ccc(Cl)cc4)c4c(sc(C)c4C)-n4c(C)nnc43)c2C)-n2c(C)nnc21 | Bromodomain testis-specific protein, BD1 and BD2 (BRDT, Homo sapiens, UniProt Q58F21) | – | – | – | 0.42
[N-]=[N+]=NCC1OC(OC2C(N)CC(N)C(OC3OC(CN)C(O)C(O)C3O)C2O)C(O)C(N)C1O (stereo not drawn) | RNA, 5′CC/3′CC internal loops | RNA binding, fluorescence titration | – | 1 h, room temperature, 12 copies of 2×2 loop | > 5000
COc1ccccc1N1CCN(CC(O)COc2cccc3ccccc23)CC1 (stereo not drawn) | Nuclear receptor subfamily 2 group C member 2 ligand-binding domain | SPR imaging | – | – | 0.015
C[C@H](N)C(=O)N[C@@H](C)C(=O)N[C@H](C(=O)N[C@@H](CCCCN)C(=O)N[C@@H](CCC(N)=O)C(=O)N[C@H](C(=O)N[C@@H](C)C(=O)N[C@@H](CCCNC(=N)N)C(=O)N[C@@H](CCCCN)C(=O)N[C@@H](CO)C(=O)O)[C@@H](C)O)[C@@H](C)O | ATRX F284Y/K251R | binding | – | – | 127000
CC(=O)N[C@@H](COP(=O)(O)O)C(=O)N1CCC[C@H]1C(=O)N[C@@H](C)C(=O)N[C@@H](Cc1ccccc1)C(N)=O | BRCA1 tandem BRCT domains | NMR titration | – | pH 7.0, 30 °C | 21000 ± 11000

Compound | target | assay | test system | conditions | Kd [nM]
Nc1nc2c(ncn2[C@@H]2O[C@H](COP(=O)(O)OP(=O)(O)O)[C@@H](O)[C@H]2O)c(=O)[nH]1 | GUK1 (Homo sapiens, UniProt Q16774, S13A) | binding, ITC | – | 25 °C | 74000 ± 4000
CCCN1CCN(c2ccc(-c3cncc(Cl)c3N3CCC4(CCNC4=O)CC3)cc2)CC1 | MED1 (human) | SILAC competition displacement | LS174T-L5 cell lysate | – | 3
CC(C)C[C@H](NC(=O)[C@@H]1CCCN1C(=O)[C@H](CO)NC(=O)[C@H](CC(N)=O)NC(=O)[C@@H](N)CCC(=O)O)C(=O)N[C@@H](Cc1c[nH]c2ccccc12)C(=O)N[C@@H](Cc1c[nH]c2ccccc12)C(=O)N1CCC[C@H]1C(=O)N[C@@H](CCC(N)=O)C(=O)N1CCC[C@H]1C(=O)N[C@@H](CC(C)C)C(=O)N[C@@H](C)C(=O)O | Mediator of RNA polymerase II transcription subunit 15, residues 1-357 (GAL11, Saccharomyces cerevisiae, UniProt P19659) | binding, fluorescence polarization | – | together with: fluorescein-labeled peptide | 83000 ± 5000
CC1=C[C@H](O)CC(C)(C)[C@H]1/C=C/C(C)=C/C=C/C(C)=C/C=C/C=C(C)/C=C/C=C(C)/C=C/C1=C(C)C[C@@H](O)CC1(C)C | Beta-lactoglobulin (LGB, Bos taurus, UniProt P02754) | binding, fluorescence quenching | PBS | 30 min, 298 K | 0.0251
NC(=O)C1=CN([C@@H]2O[C@H](COP(=O)(O)OP(=O)(O)OC[C@H]3O[C@@H](n4cnc5c(N)ncnc54)[C@H](O)[C@@H]3O)[C@@H](O)[C@H]2O)C=CC1 | Non-selective voltage-gated ion channel VDAC1 (Vdac1, Mus musculus, UniProt Q60932, N251K) | binding, fluorescence polarization | – | – | 6830 ± 60
O=c1c(-c2ccc(O)cc2)coc2cc(O)cc(O)c12 | Nuclear receptor subfamily 2 group C member 2 ligand-binding domain | SPR imaging | – | – | 0.122
C[S+](CC[C@H](N)C(=O)O)C[C@H]1O[C@@H](n2cnc3c(N)ncnc32)[C@H](O)[C@@H]1O (stereo partly drawn) | O-methyltransferase (Sorghum bicolor, UniProt A0A1B6PFV1) | ITC | – | together with: saturating PTR | 139000 ± 45800
CCCCCCCC(=O)OC[C@H](COP(=O)(O)O[C@@H]1[C@H](O)[C@H](OP(=O)(O)O)[C@@H](O)[C@H](O)[C@H]1O)OC(=O)CCCCCCC | PP2C family protein phosphatase (Vibrio splendidus, UniProt A0ABV4LX41) | binding, microscale thermophoresis | – | together with: diC8 50 µM | 280 ± 71
Cc1n[nH]c(C)c1C(c1ccc(Br)cc1)c1c(C)n[nH]c1C | Profilin-1 (PFN1, Homo sapiens, UniProt P07737) | – | – | – | ~60000
CN[C@@H]1[C@H](O)[C@H](NC)[C@H]2O[C@@]3(O)C(=O)C[C@@H](C)O[C@H]3O[C@@H]2[C@H]1O | Nuclear receptor subfamily 2 group C member 2 ligand-binding domain | SPR imaging | – | – | 0.0369
N[C@@H](Cc1c[nH]c2ccccc12)C(=O)O | Transcription attenuation protein MtrB (mtrB, Geobacillus stearothermophilus, UniProt Q9X6J6) | native mass spectrometry titration | – | – | 870
NC(=O)C1=CN([C@@H]2O[C@H](COP(=O)(O)OP(=O)(O)OC[C@H]3O[C@@H](n4cnc5c(N)ncnc54)[C@H](O)[C@@H]3O)[C@@H](O)[C@H]2O)C=CC1 | Polyketide synthase, terminal amidation domain (Moorena producens, UniProt F4Y2B0) | binding, tryptophan fluorescence quenching | – | – | 85000 ± 7000
N[C@@H](CCC(=O)N[C@@H](CS)C(=O)NCC(=O)O)C(=O)O | Cu(I) | binding, bicinchoninic acid competition | – | 250 µM, together with: bicinchoninic acid 40 µM | 0.0308
COc1ccc(F)cc1C(=O)NCc1ccc(-c2nn([C@@H](C)C(F)(F)F)c(N)c2C(N)=O)cc1 | BTK (Homo sapiens, UniProt Q06187, C481S) | surface plasmon resonance | – | – | 1.5
CCOC(=O)c1ccc(C#Cc2ccc3c(c2)C(C)(C)CCS3)nc1 | Nuclear receptor subfamily 2 group C member 2 ligand-binding domain | SPR imaging | – | – | 0.166
O=C(O)Cc1cn2nc(-c3ccc(Cl)cc3)ccc2n1 | Calcium/calmodulin-dependent protein kinase type II subunit alpha, hub domain (CAMK2A, Homo sapiens, UniProt Q9UQM7, E355Q/F467M/I414M/I464H/T354N/T412N) | surface plasmon resonance | – | pH 6, MES buffer | 1400
CC(C)C[C@@H]1NC(=O)[C@H](C)NC(=O)CNC(=O)[C@H](CC(N)=O)NC(=O)[C@@H]2CCCN2C(=O)[C@H](Cc2ccc(O)cc2)NC(=O)[C@H](CCCNC(=N)N)NC(=O)[C@H](Cc2ccccc2)NC(=O)[C@@H](NC(=O)[C@H](CCCCN)NC(=O)[C@@H]2CCCN2C(=O)[C@H](CO)NC(=O)[C@H](C)NC(=O)[C@@H](N)Cc2ccc(O)cc2)CSSC[C@@H](C(=O)N[C@H](C(N)=O)[C@@H](C)O)NC(=O)[C@H](C)NC1=O | AHSG asialo | binding, isothermal titration calorimetry | – | pH 7.0, 25 °C, together with: asialofetuin | 101000
CC(=O)N[C@@H](COP(=O)(O)O)C(=O)N1CCC[C@H]1C(=O)N[C@H](C(=O)N[C@@H](Cc1ccccc1)C(N)=O)[C@@H](C)O | BRCA1 tandem BRCT domains | binding to BACH1 peptide, isothermal titration calorimetry | – | BRCT domain | 2310 ± 60

A few entries again:
Compound | target | assay | test system | conditions | Kd [nM]
CCC1=C(C)CN(C(=O)NCCc2ccc(S(=O)(=O)NC(=O)N[C@H]3CC[C@H](C)CC3)cc2)C1=O | Nuclear receptor subfamily 2 group C member 2 ligand-binding domain | SPR imaging | – | – | 0.251
C=CC(=O)N1CCN(c2nc(OC[C@@H]3CCCN3C)nc3c(F)c(-c4nc(N)cc(C)c4C(F)(F)F)c(Cl)cc23)[C@@H](C)C1 | GTPase KRas, GDP-bound (KRAS, Homo sapiens, UniProt P01116, G12V) | SPR | – | – | 5150 ± 1300
CC1CCCCN1C(=O)CSc1nc(-c2ccc(C(C)(C)C)cc2)nc2cc(=O)[nH]n12 (stereo not drawn) | F-box only protein 22, with SKP1 (Homo sapiens, UniProt Q8NEZ5) | binding, SPR | – | 20 °C | > 6500
